Results of several laboratories.
Lines come from different studies, so protocols differ. ± marks the error that the study gave. In brackets after ≈: the same amount, converted by molar mass.

SMILES | target | test | system | conditions | scale | quantity | result
CN1CCCNC(=O)CC2(CCCCC2)CC(=O)NCCCN(C)CCCNc2cccc3c2C(=O)c2cccc(c2C3=O)NCCC1 | duplex DNA | TRAP assay PCR |  |  | no inhibition up to value | PCR inhibition threshold | > 150 µM
CCCCCCCCCCCCCCC(Br)C(=O)O[C@@H](C(=O)O[C@H]1C[C@@]2(O)[C@@H](OC(=O)c3ccccc3)[C@@H]3[C@]4(OC(C)=O)CO[C@@H]4C[C@H](O)[C@@]3(C)C(=O)[C@H](OC(C)=O)C(=C1C)C2(C)C)[C@@H](NC(=O)c1ccccc1)c1ccccc1 (some centres unmarked) | tubulin | polymerization |  |  |  | time to Vmax | 8 to 9 min
NC[C@@H]1O[C@H](O[C@H]2[C@@H](O)[C@H](O[C@@H]3[C@@H](O)[C@H](N)C[C@H](N)[C@H]3O[C@H]3O[C@H](CN)[C@@H](O)[C@H](O)[C@H]3N)O[C@@H]2CO)[C@H](N)[C@@H](O)[C@@H]1O | poly(dA)•2poly(dT) triplex | Tm shift |  | pH 5.5, 20 °C, KCl 140 mM |  | association constant | 240000 ± 10000 M⁻¹
CCC1(CC)C(=O)N(Cc2cn(CCOCCOCCOCCNC(=O)CCCC[C@@H]3SC[C@@H]4NC(=O)N[C@@H]43)nn2)C1=O | serine hydrolases | competitive ABPP | U-937 cell lysate | 10 µM | baseline: compound over DMSO | SILAC ratio | > 3
CCC(=O)N(C)c1ccc(Cl)c(Cl)c1 | CAR3 constitutive androstane receptor, human | reporter gene, agonist |  | 1.0 µM | baseline: vehicle | fold activation | 0.82 fold
CN1CCCNC(=O)CCC(=O)NCCCN(C)CCCNc2cccc3c2C(=O)c2cccc(c2C3=O)NCCC1 | duplex DNA | TRAP assay PCR |  |  | no inhibition up to value | PCR inhibition threshold | > 150 µM
Cc1c(-c2cccc(C3=NCCN3)c2)oc(-c2cccc(C3=NCCN3)c2)c1C | c-KIT2 G-quadruplex DNA | G-quadruplex stabilisation, FRET melting |  | 1 µM |  | ΔTm | 16.8 °C
CN(CC(=O)c1ccc2[nH]c(=O)[nH]c2c1)Cc1ccco1 | uracil-DNA glycosylase | enzyme activity, inhibitor |  | concentration not given |  | inhibition | no inhibition
Cc1cccc(C)c1Nc1nn(C)c2nc(Nc3ccc4c(c3)CN(CC3CCN(c5ccc6c(c5)C(=O)N(C5CCC(=O)NC5=O)C6=O)CC3)CC4)ncc12 (centres unmarked) | IKZF1, IKZF3, Helios, GSPT1, CK1α | immunoblot | U2932 and WSU-WM | 100 nM, 24 or 72 h |  | neosubstrate protein level | no effect
CC[C@H](C)[C@H](NC(=O)[C@H](CCC(=O)O)NC(=O)[C@H](CO)NC(=O)[C@@H](NC(=O)[C@@H](N)CO)C(C)C)C(=O)N[C@@H](CCC(N)=O)C(=O)N[C@@H](CC(C)C)C(=O)N[C@@H](CCSC)C(=O)N[C@@H](Cc1c[nH]cn1)C(=O)N[C@@H](CC(N)=O)C(=O)N[C@@H](CC(C)C)C(=O)NCC(=O)N[C@@H](CCCCN)C(=O)N[C@@H](Cc1c[nH]cn1)C(=O)N[C@@H](CC(C)C)C(=O)N[C@@H](CC(N)=O)C(=O)N[C@@H](CO)C(=O)N[C@@H](CCSC)C(=O)N[C@@H](CCC(=O)O)C(=O)N[C@@H](CCCNC(=N)N)C(=O)N[C@H](C(=O)N[C@@H](CCC(=O)O)C(=O)N[C@@H](Cc1c[nH]c2ccccc12)C(=O)N[C@@H](CC(C)C)C(=O)N[C@@H](CCCNC(=N)N)C(=O)N[C@@H](CCCCN)C(=O)N[C@@H](CCCCN)C(=O)N[C@@H](CC(C)C)C(=O)N[C@@H](CCC(N)=O)C(=O)N[C@@H](CC(=O)O)C(=O)N[C@H](C(=O)N[C@@H](Cc1c[nH]cn1)C(=O)N[C@@H](CC(N)=O)C(=O)N[C@@H](Cc1ccccc1)C(=O)O)C(C)C)C(C)C | GFP-PTH1 receptor | co-localization, confocal microscopy | HEK293 | after ligand washout |  | Pearson correlation coefficient | 0.767 ± 0.03
CC(C)C[C@H](NC(=O)[C@H](CO)NC(=O)[C@H](CCCNC(=N)N)NC(=O)[C@H](CC(=O)O)NC(=O)[C@H](CCC(=O)O)NC(=O)[C@H](C)NC(=O)[C@@H]1CCCN1C(=O)[C@H](C)NC(=O)[C@H](CCC(=O)O)NC(=O)[C@@H]1CCCN1C(=O)[C@@H]1CCCN1)C(N)=O | dopamine system |  | rhesus monkey, contralateral putamen, caudate, pallidus | intranasal, dose not given, repeated dose escalation | baseline: vehicle | dopamine level | no effect
NC[C@@H]1O[C@H](O[C@H]2[C@@H](O)[C@H](O[C@@H]3[C@@H](O)[C@H](N)C[C@H](N)[C@H]3O[C@H]3O[C@H](CO)[C@@H](OCC(O)CO)[C@H](O)[C@H]3N)O[C@@H]2CO)[C@H](N)[C@@H](O)[C@@H]1O (some centres unmarked) | rabbit reticulocyte ribosome | luciferase translation, cell-free translation | rabbit reticulocyte lysate |  |  | IC50 | 8.81 ± 4.42 µg/mL (≈ 12.8 µM)
CO[C@@H]1[C@H](O)[C@@H](COP(=O)(O)OP(=O)([S-])OP(=O)(S)OC[C@H]2O[C@@H](n3cnc4c(=O)[nH]c(N)nc43)[C@H](O)[C@@H]2O)O[C@H]1n1c[n+](C)c2c(O)nc(N)nc21 (some centres unmarked) | Schizosaccharomyces pombe Dcp1/Dcp2 complex | substrate | capped short RNA | 30 min, 30 °C |  | decapping | 59.8 ± 4.8%
Cc1sc2ncn(CC(=O)N3CCCC3)c(=O)c2c1-c1cccc(Br)c1 | NMDA receptor, mouse | single-channel current, outside-out patch | cortical neurons | concentration not given, together with: Ca2+ 1.25 mM |  | amplitude 2 area | 23%
CC[C@H](C)[C@@H]1NC(=O)[C@H](CCCNC(=N)N)NC(=O)[C@H](C)NC(=O)CNC(=O)[C@H](CCCCN)NC(=O)[C@H](CCCNC(=N)N)NC(=O)[C@H](C(C)C)NC(=O)[C@H](C)NC(=O)[C@@H]2CSSC[C@@H]3NC(=O)[C@H](CO)NC(=O)[C@H]([C@@H](C)O)NC(=O)CNC(=O)[C@H](CCCNC(=N)N)NC(=O)[C@@H]4CCCN4C(=O)[C@H](CSSC[C@@H](C(=O)N[C@@H](CC(C)C)C(=O)O)NC(=O)[C@H](CCCCN)NC(=O)[C@H](CC(C)C)NC(=O)[C@H](CC(C)C)NC(=O)[C@H](Cc4ccccc4)NC(=O)[C@H](CO)NC(=O)[C@H](CC(N)=O)NC3=O)NC(=O)[C@H](CC(=O)O)NC(=O)[C@H](CSSC[C@H](NC(=O)[C@H](CCSC)NC(=O)[C@@H]3CCCN3C(=O)[C@@H](NC(=O)[C@H](CCC(N)=O)NC(=O)CNC(=O)[C@H](Cc3ccc(O)c(I)c3)NC(=O)[C@@H](N)CCCCN)C(C)C)C(=O)N[C@@H](CC(=O)O)C(=O)N[C@@H](C)C(=O)NCC(=O)N[C@@H](CCC(=O)O)C(=O)N[C@@H](CCC(N)=O)C(=O)N2)NC(=O)[C@H](CC(C)C)NC(=O)[C@H](CCCCN)NC(=O)CNC1=O [iodine-125 labelled] | CART binding site, rat | saturation binding | differentiated PC-12 membranes |  |  | Kd | 680 ± 60 pM
Cc1ccc(NC(=O)c2c(C)oc3ccc(O)c(CN4CCCCCC4)c23)cc1 | CAG repeat DNA | binding, small molecule microarray |  |  | direction not given | composite Z-score | 0.1
Cc1ccc2ccc3ccc(C)nc3c2n1.Cc1ccc2ccc3ccc(C)nc3c2n1.O.[Cl-].[Cl-].[Cl-].[Yb+3] | salmon sperm DNA | gel electrophoresis |  | concentration not given, together with: H2O2 20 mM | baseline: without H2O2 | DNA cleavage | increased
Nc1ncc(-c2nc(N3CCOCC3)nc(N3CCN(C(=O)CCC(=O)NCCCCCCCCCNc4cccc5c4C(=O)N(C4CCC(=O)NC4=O)C5=O)CC3)n2)c(C(F)F)n1 (centres unmarked) | PI3K p110alpha | degrader, Western blot | MCF7 and T47D | concentration not given |  | degradation | active
CC1OCC2OC(OC3C(N)CC(N)C(O)C3OC3OC(CO)C(OC4OC(CN)C(O)C(O)C4N)C3O)C(N)C(O)C2O1 (centres unmarked) | rabbit reticulocyte ribosome | luciferase translation, cell-free translation | rabbit reticulocyte lysate |  |  | IC50 | 37.4 ± 4.61 µg/mL (≈ 58.3 µM)
C1=[N+]2CCC[N+]3=Cc4ccc5[n]4[Au-]23[n]2c1ccc2-c1nc2ccccc2nc1-5.F[P-](F)(F)(F)(F)F | human ACTN3 291-bp dsDNA | high resolution melt |  |  |  | maximal Tm increase | 5.1 °C

Some of these lines once more:
SMILES | target | test | system | conditions | scale | quantity | result
CN1CCCNC(=O)CC2(CCCCC2)CC(=O)NCCCN(C)CCCNc2cccc3c2C(=O)c2cccc(c2C3=O)NCCC1 | duplex DNA | TRAP assay PCR |  |  | no inhibition up to value | PCR inhibition threshold | > 150 µM
Cc1ccc2ccc3ccc(C)nc3c2n1.Cc1ccc2ccc3ccc(C)nc3c2n1.O.[Cl-].[Cl-].[Cl-].[Yb+3] | salmon sperm DNA | gel electrophoresis |  | concentration not given, together with: H2O2 20 mM | baseline: without H2O2 | DNA cleavage | increased
